Experimental data pooled from the literature.
Sample: plasma

Cc1cc(Nc2cc3ncccc3c(N[C@@H]3C[C@H]4CC[C@@H](C3)N4CCC#N)n2)n[nH]1
Cmax (Sprague-Dawley rat, male; oral, 1000 mg/kg/day, last day of 13 weeks): 71.9 ng/mL

Cc1nc2cccc(OCC(C)(C)C(=O)NC(C)C)c2c(N)c1C(=O)O
Cmax (male Sprague-Dawley rat; dietary, 30 mg/kg/day, day 7): 18.4 ng/mL

COc1cccc(-c2n[nH]c(SCc3ccccn3)n2)c1OC
Cmax (Sprague-Dawley rat, both sexes; oral, diet, 100 mg/kg/day, day 7): 6230 ng/mL

Cn1c(C(F)(F)F)cc(=O)n(-c2cc(Oc3cccnc3OCC(=O)O)c(Cl)cc2F)c1=O
Cmax (beagle dog, female; oral capsule, 1000 mg/kg/day epyrifenacil, week 13, 90-day study): 7050 ng/mL

CNCc1ccc(-c2[nH]c3cc(F)cc4c3c2CCNC4=O)cc1
Cmax (human patients; oral, 360 mg twice daily, day 1, arithmetic mean): 666 ng/mL

O=c1[nH]c(=O)c(Cc2cccc(C(F)(F)F)c2)c([C@H]2CC[C@H](c3ccccc3)CC2)[nH]1
Cmax (human, fasted; oral, 900 mg single dose, geometric mean): 571 ng/mL

CCCC[C@H](NC(C)=O)C(=O)N[C@H]1CCC(=O)NC[C@@H](C(=O)N[C@@H](Cc2c[nH]c3ccccc23)C(N)=O)NC(=O)[C@H](CCCNC(=N)N)NC(=O)[C@@H](Cc2ccccc2)NC(=O)[C@H](Cc2c[nH]cn2)NC1=O
Cmax (beagle dog, female; subcutaneous, 40.0 mg/kg daily, day 28): 1260 ng/mL

CCCOc1ccc([C@H]2CNC(=O)N2c2ccc3[nH]cnc3c2)cc1
Cmax (human; oral, 1200 mg, single dose, fed): 4710 ng/mL

CS(=O)(=O)Nc1ccc(C(=O)O[C@@H](Cc2c(Cl)c[n+]([O-])cc2Cl)c2ccc(OC(F)F)c(OCC3CC3)c2)cc1OCC1CC1
Cmax (human; inhaled, 1200 µg twice daily, day 14, multi-dose dry powder inhaler): 3.65 ng/mL

O=C1N=C(N2CCOCC2)CN1c1ccc(Cl)cc1
Cmax (beagle dog, both sexes; oral, 30 mg/kg, day 0, tablets, single dose): 17200 ng/mL

A few entries again:
CCCC[C@H](NC(C)=O)C(=O)N[C@H]1CCC(=O)NC[C@@H](C(=O)N[C@@H](Cc2c[nH]c3ccccc23)C(N)=O)NC(=O)[C@H](CCCNC(=N)N)NC(=O)[C@@H](Cc2ccccc2)NC(=O)[C@H](Cc2c[nH]cn2)NC1=O
Cmax (beagle dog, female; subcutaneous, 40.0 mg/kg daily, day 28): 1260 ng/mL
